Assay results collected from several papers.
Compare with care: the assays were run in different laboratories.

`Nc1nc2c(ncn2[C@@H]2O[C@@H]3COP(=O)(O)O[C@H]4[C@@H](O)[C@H](n5cnc6c(N)ncnc65)O[C@@H]4COP(=O)(O)O[C@@H]2[C@@H]3O)c(=O)[nH]1` — result for “time to peak STING oligomerization”: at most 10 min (STING (human); Blue-Native PAGE; HeLa Kyoto with inducible STING; concentration not given).
For `Nc1c(Br)cc(Br)cc1CN[C@H]1CC[C@H](O)CC1`, the lowest IC30 was 2.99 µM (seizure ion channel panel; ion current, inhibitor; lowest across channels).
The maximum response of `Cc1oc(=O)oc1CN1CCN(c2cc3c(cc2F)c(=O)c(C(=O)O)c2n3C(C)S2)CC1` (stereo not shown) is reported as -13.9% (biotinylated rabbit IgG; 11-point dose-response, protein A and streptavidin binding).
For `O=C(Cc1ccccc1I)N[C@H]1CCOC1=O`, the activation was 24% (ExpR2 (Pectobacterium carotovorum); cellulase activity, agonist; Pectobacterium carotovorum, single-ExpR2 strain; 200 µM, 4 h; reference: OHHL).
The IC50 of `C[C@@H]1N=C(c2ccccc2F)c2cc(Br)ccc2-n2cnc(C(=O)O)c21` is reported as 0.0251 µM (rat brain GABA-A receptor; [3H]flunitrazepam binding; rat brain extract).
`C[N+](C)(C)CCOS(=O)(=O)[O-]` gave a ΔTm of 8 °C (SAR11_0797 protein (Candidatus Pelagibacter ubique); thermal stabilisation, differential scanning fluorimetry).
With `CCN(CC)C(=O)/C(C#N)=C/c1cc(O)c(O)c([N+](=O)[O-])c1` the maximum response was -30.4% (biotinylated rabbit IgG; 11-point dose-response, protein A and streptavidin binding).
With `CCOP(=S)(OCC)Oc1ccc2c(C)c(Cl)c(=O)oc2c1` the cross-reactivity was 100% (nanobody A4; ic-ELISA; concentration not given; reference: coumaphos IC50 over compound IC50, molar basis).
The inhibition of `O=C(Cc1ccccc1)NC1CCOC1=O` (stereo not shown) is reported as 11% (ExpR2 (Pectobacterium carotovorum); cellulase activity, antagonist; Pectobacterium carotovorum, single-ExpR2 strain; 5 µM, 4 h, added: OHHL 5 µM).
For `COP(=S)(OC)Oc1ccc([N+](=O)[O-])c(C)c1`, the cross-reactivity was under 1% (nanobody A4; ic-ELISA; concentration not given; reference: coumaphos IC50 over compound IC50, mass basis).
With `NC(CC1(C(=O)O)CC2OC(CO)C(O)C(N)C2O1)C(=O)O` (stereo not shown) the current amplitude was under 10 pA (GluK1/GluK4 heteromer; ion current, agonist, whole-cell patch-clamp; 30 µM).
For `O=[N+]([O-])c1ccc(O)cc1`, the inhibition was over 50% (human UGT; glucuronidation; human liver microsomes; 200 µM, 60 min, added: FBI-COOH 50 µM).
For `CCCCCCCCCCCCCCCC[n+]1ccn(Cc2ccccc2)c1C`, the maximum response was 19.8% (biotinylated rabbit IgG; 11-point dose-response, protein A and streptavidin binding).
With `O=C(Cc1ccc(I)cc1)N[C@H]1CCOC1=O` the inhibition was 68% (ExpR2 (Pectobacterium carotovorum); cellulase activity, antagonist; Pectobacterium carotovorum, single-ExpR2 strain; 5 µM, 4 h, added: OHHL 5 µM).
For `C#Cc1nc(C(=O)N2CCC(NC(=O)c3cnc(-c4ccccc4)s3)(c3nc4ccccc4n3C)CC2)cs1`, IFNβ induction read “inhibited” (STING (human); inhibitor; primary human CD14+ monocytes; 2.5 µM, added: diABZI).
`O=C(O[C@@H]1O[C@@H]2COC(=O)c3cc(O)c(O)c(O)c3-c3c(cc(O)c(O)c3O)C(=O)O[C@H]([C@H]1O)[C@@H]2O)c1cc(O)c(O)c(O)c1` gave a maximum response of -27.1% (biotinylated rabbit IgG; 11-point dose-response, protein A and streptavidin binding).
`Cc1nnc(SCC2=C(C(=O)O)N3C(=O)[C@@H](NC(=O)Cn4cnnn4)[C@H]3SC2)s1` gave a lowest IC30 of over 30 µM (seizure ion channel panel; ion current, inhibitor; lowest across channels).
The activation of `CCCCCCCCCC(=O)CC(=O)N[C@H]1CCOC1=O` is reported as 17% (ExpR2 (Pectobacterium carotovorum); cellulase activity, agonist; Pectobacterium carotovorum, single-ExpR2 strain; 200 µM, 4 h; reference: OHHL).
`CN(C)C(=O)c1cc2cnc(Nc3ccc(-c4ccc5c(=O)cc(N6CCOCC6)oc5c4)cc3)nc2n1C1CCCC1` — result for “fraction of kinome inhibited”: 1.5% (kinase panel; binding, KINOMEscan; 1.0 µM).
`CCOC(=O)[C@H](CCc1ccccc1)N[C@@H](C)C(=O)N1CCC[C@H]1C(=O)O` has a maximum response of 21.5% (biotinylated rabbit IgG; 11-point dose-response, protein A and streptavidin binding).
The IC50 of `CCOP(=S)(OCC)O/N=C(\C#N)c1ccccc1` is reported as 1.55 µg/mL (nanobody A4; binding, ic-ELISA; added: H1-OVA coating antigen).
The lowest IC30 of `CC(=O)Nc1ccc(O)cc1` is reported as over 30 µM (seizure ion channel panel; ion current, inhibitor; lowest across channels).
For `CCOP(=S)(OCC)SCCSCC`, the IC50 was over 4 µg/mL (nanobody A4; binding, ic-ELISA; added: H1-OVA coating antigen).
`O=C(Cc1ccc(Cl)cc1)N[C@H]1CCOC1=O` has an activation of 29% (ExpR2 (Pectobacterium carotovorum); cellulase activity, agonist; Pectobacterium carotovorum, single-ExpR2 strain; 200 µM, 4 h; reference: OHHL).
For `O=C(O)c1ccccn1`, the maximum response was 24.1% (biotinylated rabbit IgG; 11-point dose-response, protein A and streptavidin binding).
`CCOC(=O)c1ccc(OC(=O)CCCCCN=C(N)N)cc1.CS(=O)(=O)O` gave a Hill slope of -1.12 (trypsin, human; inhibitor).
`CC(C)c1cccc(=O)c(O)c1` has a maximum response of -21.4% (biotinylated rabbit IgG; 11-point dose-response, protein A and streptavidin binding).
`CNCC[C@@H](Oc1ccccc1C)c1ccccc1` has a lowest IC30 of 3.94 µM (seizure ion channel panel; ion current, inhibitor; lowest across channels).
`O=C(Cc1cc(C(F)(F)F)cc(C(F)(F)F)c1)NC1CCOC1=O` (stereo not shown) has an inhibition of 16% (ExpR2 (Pectobacterium carotovorum); cellulase activity, antagonist; Pectobacterium carotovorum, single-ExpR2 strain; 5 µM, 4 h, added: OHHL 5 µM).
For `C[C@@H]1CCO[C@H]2Cn3cc(C(=O)NCc4ccc(F)cc4F)c(=O)c(O)c3C(=O)N12`, the maximum response was -19.1% (biotinylated rabbit IgG; 11-point dose-response, protein A and streptavidin binding).
`CCOP(=S)(OCC)SCn1c(=O)oc2cc(Cl)ccc21` gave an IC50 of 7.79 µM (nanobody A4; binding, ic-ELISA).
Under transcript elongation, `CC[C@H](C)[C@H](NC(=O)CNC(=O)[C@@H](NC(=O)[C@H](Cc1ccccc1)NC(=O)[C@H](Cc1ccc(O)cc1)NC(=O)[C@@H]1CCC(=O)NCC(=O)NCC(=O)N[C@@H](C)C(=O)NCC(=O)N[C@@H](Cc2c[nH]cn2)C(=O)N[C@@H](C(C)C)C(=O)N2CCC[C@H]2C(=O)N1)C(C)C)C(=O)NCC(=O)N[C@H](C(=O)N1CCC[C@H]1C(=O)N[C@H](C(=O)N[C@@H](CO)C(=O)N[C@@H](Cc1ccccc1)C(=O)N[C@@H](Cc1ccc(O)cc1)C(=O)NCC(=O)O)[C@@H](C)CC)[C@@H](C)O` is recorded as “inhibited” (Pseudomonas aeruginosa RNA polymerase; inhibitor).
With `Oc1cc(Cl)ccc1Oc1ccc(Cl)cc1Cl` the cross-reactivity was 100% (nanobody T2 (Bactrian camel); ELISA, IC50-based; concentration not given, coating antigen T2/H3-BSA).
`O=C(Nc1cccnn1)N1CCN([C@@H]2CCOc3cc(C(F)(F)F)ccc32)CC1` has an inhibition of 35% (I1; Cerep BioPrint; 20 µM).
`O=C(Cc1cccc(Br)c1)N[C@H]1CCOC1=O` gave an activation of 97% (ExpR2 (Pectobacterium carotovorum); cellulase activity, agonist; Pectobacterium carotovorum, single-ExpR2 strain; 200 µM, 4 h; reference: OHHL).
`O=S(=O)(NCCNC/C=C/c1ccc(Br)cc1)c1cccc2cnccc12`: “embryos at morula stage” 26.3% (PKA; inhibitor; mouse zygotes; 20 µM, Post hCG injection, 96 h, early embryonic development).
For `CCOP(=S)(OCC)Oc1ccc(Cl)cc1Cl`, the cross-reactivity was under 1% (nanobody A4; ic-ELISA; concentration not given; reference: coumaphos IC50 over compound IC50, mass basis).
The IC50 of `COc1cc(Nc2ncc(F)c(Nc3ccc4c(n3)NC(=O)C(C)(C)O4)n2)cc(OC)c1OC` is reported as over 10 µM (central benzodiazepine receptor; binding).
With `O=C(Cc1ccc2ccccc2c1)N[C@H]1CCOC1=O` the inhibition was 5% (ExpR2 (Pectobacterium carotovorum); cellulase activity, antagonist; Pectobacterium carotovorum, single-ExpR2 strain; 5 µM, 4 h, added: OHHL 5 µM).
`CCOP(=S)(OCC)Oc1nc(Cl)c(Cl)cc1Cl` gave a cross-reactivity of under 1% (nanobody A4; ic-ELISA; concentration not given; reference: coumaphos IC50 over compound IC50, mass basis).
